Results from different studies.
Parts stem from different laboratories: compare values within a part only. ≈ marks a conversion by molar mass, not a printed value.

Study 1 — organism: VSVΔG with SARS-CoV-2 spike; read-out: pseudovirus infection; strain: Wuhan variant; tested at: 10 µM
SMILES | inhibition [%]
Cc1ccc(/C(C#N)=C2\C=CC(=NO)C(Cl)=C2)cc1 | 46
CCOC(=O)c1cc(C#N)c(Sc2nnc(SC)s2)nc1C(F)(F)F | 41
Cc1sc2nc(CN3CCCC3)nc(Sc3nnnn3C3CCCC3)c2c1C | 36
N#Cc1c(Cl)c(Cl)c(Cl)c(Cl)c1C#N | 60
Clc1cc2c(c3ncccc13)OCN(C1CCCC1)C2 | 65
c1ccc(-c2cnc3ccccc3c2)c(OCCn2ccnc2)c1 | 37
Cc1nc(Sc2nnc(-c3ccccc3)n2C)c2sc(=S)n(-c3ccccc3)c2n1 | 43
Fc1ccccc1CN1CCCC(NCc2cccn2-c2nccs2)C1 (stereo not shown) | 69

Other studies, line by line
rep nsp14: Replicase polyprotein 1ab, nsp14 (rep, Severe acute respiratory syndrome coronavirus 2, UniProt P0DTD1)
rep nsp12 RdRp: Replicase polyprotein 1ab, nsp12 RdRp (rep, Severe acute respiratory syndrome coronavirus 2, UniProt P0DTD1)
SMILES | tested on | assay | test system | setting | endpoint | value
CO[C@H]1/C=C/O[C@@]2(C)Oc3c(C)c(O)c4c(O)c(c(/C=N/N5CCN(C)CC5)c(O)c4c3C2=O)NC(=O)/C(C)=C\C=C\[C@H](C)[C@H](O)[C@@H](C)[C@@H](O)[C@@H](C)[C@H](OC(C)=O)[C@@H]1C | Mycobacterium tuberculosis | – | H37Rv mc2-6206 MmpL3 G253E | – | MIC80 | 0.076 µM (≈ 0.0625 µg/mL)
NC12CC3CC(CC(C3)O1)C2 | Matrix protein 2 (Influenza A virus, UniProt P0DOF5, V27A) | – | – | concentration not given, pH 5.5, cell-based | inhibition | 0%
CCCCCCC#Cc1cncc(-c2nnc(SCc3cc([N+](=O)[O-])cc([N+](=O)[O-])c3)n2C)c1 | Mycobacterium tuberculosis | – | H37Rv mc2-6206 MmpL3 L567P | – | MIC80 | 4.2 µM (≈ 2.02 µg/mL)
Cl.NCC12C3CCC4C3C3C(CCC31)C42 | Matrix protein 2 (Influenza A virus, UniProt P0DOF5, S31N) | – | – | concentration not given, pH 5.5, cell-based | inhibition | 0%
Cc1ccc(NS(=O)(=O)c2cccc(C(=O)NC3CCN(c4ncnc5[nH]cnc45)CC3)c2)cc1 | rep nsp14 | – | – | 12.5 µM | inhibition | 74.4%
COC(=O)N[C@H](C(=O)N1CC2(CC2)C[C@H]1c1ncc(-c2ccc3c(c2)C(F)(F)c2cc(-c4ccc5nc([C@@H]6[C@H]7CC[C@H](C7)N6C(=O)[C@@H](NC(=O)OC)C(C)C)[nH]c5c4)ccc2-3)[nH]1)C(C)C | rep nsp12 RdRp | binding, biolayer interferometry | – | concentration not given | BLI response | 0.01 nm
O=C(NC1CCN(c2ncnc3[nH]cnc23)CC1)c1cccc(NS(=O)(=O)c2cccs2)c1 | rep nsp14 | enzyme activity | SARS-CoV-2 | concentration not given | inhibition | 28%
CC(C)(C)c1nc(-c2cccc(NS(=O)(=O)c3c(F)cccc3F)c2F)c(-c2ccnc(N)n2)s1 | rep nsp12 RdRp | binding, biolayer interferometry | – | concentration not given | BLI response | 0 nm

For quick reference, copied from above (other studies, line by line):
SMILES | tested on | assay | test system | setting | endpoint | value
CO[C@H]1/C=C/O[C@@]2(C)Oc3c(C)c(O)c4c(O)c(c(/C=N/N5CCN(C)CC5)c(O)c4c3C2=O)NC(=O)/C(C)=C\C=C\[C@H](C)[C@H](O)[C@@H](C)[C@@H](O)[C@@H](C)[C@H](OC(C)=O)[C@@H]1C | Mycobacterium tuberculosis | – | H37Rv mc2-6206 MmpL3 G253E | – | MIC80 | 0.076 µM (≈ 0.0625 µg/mL)
NC12CC3CC(CC(C3)O1)C2 | Matrix protein 2 (Influenza A virus, UniProt P0DOF5, V27A) | – | – | concentration not given, pH 5.5, cell-based | inhibition | 0%
CCCCCCC#Cc1cncc(-c2nnc(SCc3cc([N+](=O)[O-])cc([N+](=O)[O-])c3)n2C)c1 | Mycobacterium tuberculosis | – | H37Rv mc2-6206 MmpL3 L567P | – | MIC80 | 4.2 µM (≈ 2.02 µg/mL)
